Measured values of several laboratories.
Compare with care: the assays were run in different laboratories. ± marks the error that the study gave.

CCC(=C(c1ccc(Cl)cc1)c1ccc(OCCCN(C)C)cc1)c1ccc(OC)cc1  GI50 (KM12; cell growth or viability, SRB): 2550 nM
CCN1CCN(Cc2ccc(C(=O)Nc3ccc(C)c(NCc4cnc5[nH]ccc5c4OC)c3)cc2C(F)(F)F)CC1  GI50 (EJ, wild type; cell proliferation; 48 h): 4600 nM
C=CC(=O)N1CCc2ccc(-n3c(=O)ccc4cnc5ccc(-c6cnn(C)c6)cc5c43)cc21  GI50 (BCWM1; cell growth or viability; 48 h): 120 nM
CC/C=C\C/C=C\C/C=C\C/C=C\C/C=C\C/C=C\CCC(=O)Nc1ccn(C2OC(CO)C(O)C2(F)F)c(=O)n1 (stereo not drawn)  GI50 (UACC-257; cell growth or viability, SRB): 518 nM
C[n+]1ccc(/C=N/NC(=O)c2cccc(C(=O)N/N=C/c3cc[n+](C)c4ccccc34)n2)c2ccccc21  GI50 (T98G multidrug-resistant; CellTiter-Glo; 96 h): 17800 ± 200 nM
COc1cc2c(cc1C)NC(=O)C2=Cc1c(Cl)[nH]c2c1ccc1ccccc12  GI50 (NCI-60 cell panel; 48 h, panel mean): 370 nM
COC1CN([C@H]2CC[C@H]([C@@]3(C)Oc4c(Cl)cc(C(=O)NCc5c(SC)cc(C)[nH]c5=O)c(C)c4O3)CC2)C1  GI50 (UMUC3; cell growth or viability, ATP luminescence; 12 days): > 1000 nM
C[n+]1ccc(/C=N/NC(=O)c2cncc(C(=O)N/N=C/c3cc[n+](C)c4ccccc34)n2)c2ccccc21  GI50 (T98G multidrug-resistant; CellTiter-Glo; 96 h): 12000 ± 500 nM
CC(=C(c1ccc(O)cc1)c1ccc(Cl)cc1)c1ccc(Cl)cc1  GI50 (UACC-257; cell growth or viability, SRB): 940 nM

Excerpt of the above:
C=CC(=O)N1CCc2ccc(-n3c(=O)ccc4cnc5ccc(-c6cnn(C)c6)cc5c43)cc21  GI50 (BCWM1; cell growth or viability; 48 h): 120 nM
